# Experimental data of several laboratories.
# Every numbered part comes from another study and shows a few of its results, in no order. Substitutions count along the parent as printed.

# Sample 1 — method: RNA Bind-n-Seq; molecule type: RNA; matrix: in vitro; concentration: 200 nM; notes: whole 134-nt RNA, ends assumed; with: 150 mM KCl; relative to: input library; direction: higher = stronger binding
# Target: Ras GTPase-activating protein-binding protein 1, full length (G3BP1, Homo sapiens, UniProt Q13283)
# Chain of UniProt Q13283 (whole entry, looked up): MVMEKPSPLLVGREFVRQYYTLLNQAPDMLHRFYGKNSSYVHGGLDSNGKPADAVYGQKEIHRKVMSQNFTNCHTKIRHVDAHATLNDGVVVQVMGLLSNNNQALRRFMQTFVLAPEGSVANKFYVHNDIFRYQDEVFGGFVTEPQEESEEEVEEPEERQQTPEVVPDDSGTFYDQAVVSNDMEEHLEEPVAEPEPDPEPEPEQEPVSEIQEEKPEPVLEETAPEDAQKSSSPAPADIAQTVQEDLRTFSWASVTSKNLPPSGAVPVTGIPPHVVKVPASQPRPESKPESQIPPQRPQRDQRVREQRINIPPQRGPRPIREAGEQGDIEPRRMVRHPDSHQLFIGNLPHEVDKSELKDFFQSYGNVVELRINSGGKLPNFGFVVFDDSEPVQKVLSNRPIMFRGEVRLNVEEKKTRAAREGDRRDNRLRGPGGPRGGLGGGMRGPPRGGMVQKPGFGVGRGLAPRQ
Strand,log2 enrichment
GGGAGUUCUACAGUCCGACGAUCGCAGGAAGUAAAAACAAAUGGAAAUGCUUCGGAUAGUGGCAGGGGUGGGGGUAAAUAAGGAAAGGGUGGGAUGGGAGUGGGUAAAGAGUUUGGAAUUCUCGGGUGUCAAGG,0.821
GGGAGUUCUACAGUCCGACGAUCUGUGCUACACAUCGUAUGUACCGAAUCGGGGUUUUUUUGGGGAAAAAAAGGGGAAAAAGGGGAAAGUAUUAUGUUACGCCGUUCGGAUCUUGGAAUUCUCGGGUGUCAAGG,-0.497
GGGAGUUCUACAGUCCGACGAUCCGGUCAGACUUUGUGUUACAUAAAUUAACACUGUUCUCAGGUAAUGAGAGAUCCAAACACCAAGCGCUCCAGGGGCUUUGGGUUUGUCACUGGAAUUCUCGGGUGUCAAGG,-1.25
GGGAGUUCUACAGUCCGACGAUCUAACUUUAGAGGAGGAUCUGAUGGAUAUGGCAGUGGACGUGGAUUUGGGGAUGGCUAUAAUGGGUAUGGAGGCGGACCUGGAGGUGGCAAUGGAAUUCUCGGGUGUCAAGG,0.254
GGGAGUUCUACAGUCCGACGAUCCAAGUCCUGUGCUACACAUCGUAUGUACCGAAUCGGGCCCGGGGCCCGGGCCCGGAAAGUAUUAUGUUACGCCGUUCGGAUCUGCACUUCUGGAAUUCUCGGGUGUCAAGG,0.113
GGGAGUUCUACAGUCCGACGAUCCAAGUCCUGUGCUACACAUCGUAUGUACCGAAUCGGGGCCCGGCCCGGGCCCGGGGAAAGUAUUAUGUUACGCCGUUCGGAUCUGCACUUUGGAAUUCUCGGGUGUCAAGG,-1.23
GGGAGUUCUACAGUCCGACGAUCCACAGACAACACGCACCCACACAGACACAGAGGGAAGGGGUUGGGAUGGGGACAGGGUGCACAGCAGGGCGGGGUAUGACCCCAGCCCCUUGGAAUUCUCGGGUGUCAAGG,1.87
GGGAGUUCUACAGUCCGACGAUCGCAGGAAGUAAAAACAAAUGGAAAUAAAUCGGAUAGUGGCAGGGGUGGGGGUUGCUAAGGAAAGGGUGGGAUGGGAGUGGGUAAAGAGUUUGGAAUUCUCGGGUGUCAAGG,0.96
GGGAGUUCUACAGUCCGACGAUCUGUCUGCGGACCUGGUUUCAGCGCUGGUGGGACUGCAGCCGGAGGUCAGCCCAGCAGAGACUGCAGCUGGAGAGGGCAGUGCAACACCACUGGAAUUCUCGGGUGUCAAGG,-1.09
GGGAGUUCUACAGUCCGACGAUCCAACGUUGAAAUGGAUUGGGUGUUGAAGCAUACUGGUCCAAAUAGUCCUGACACGGCCAAUGAUGGCUUUGUACGGCUUAGAGGACUUCCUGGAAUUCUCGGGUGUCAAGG,-2.02
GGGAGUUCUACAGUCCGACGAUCCCUGUGCUACACAUCGUAUGUACCGAAUCGGGGAAAAAAAGGGGAAAAAGGGGAAAGGGGAAAGUAUUAUGUUACGCCGUUCGGAUCUGCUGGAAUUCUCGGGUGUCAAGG,0.267
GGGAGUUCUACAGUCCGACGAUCUGGGAGGUGGAUUUUGUUUAUUUUUUUAGCUCAUUUCCCGGGGUGGGAAUUUUUUUUUAAUAUGUGUCAUGAAUAAAGUUGUUUUUGAAAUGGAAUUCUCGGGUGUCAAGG,-0.173
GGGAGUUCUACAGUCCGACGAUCUGGGAGGUGGAUUUUGUUCAUUUUUUUAGCUCAUUUCCAGGGGUGGGAAUUUUUUUUUAAUAUGUGUCAUGAAUAAAGUUGUUUUUGAAAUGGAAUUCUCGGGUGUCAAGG,0.108

# Sample 2 — method: RNA Bind-n-Seq; molecule type: RNA; matrix: in vitro; concentration: 100 nM; relative to: input RNA pool; direction: higher = stronger binding
# Target: RING finger protein unkempt homolog, zinc fingers 1-6, SBP tag (UNK, Homo sapiens, UniProt Q9C0B0, residues 30-357)
# Chain of UniProt Q9C0B0 (30-357, looked up): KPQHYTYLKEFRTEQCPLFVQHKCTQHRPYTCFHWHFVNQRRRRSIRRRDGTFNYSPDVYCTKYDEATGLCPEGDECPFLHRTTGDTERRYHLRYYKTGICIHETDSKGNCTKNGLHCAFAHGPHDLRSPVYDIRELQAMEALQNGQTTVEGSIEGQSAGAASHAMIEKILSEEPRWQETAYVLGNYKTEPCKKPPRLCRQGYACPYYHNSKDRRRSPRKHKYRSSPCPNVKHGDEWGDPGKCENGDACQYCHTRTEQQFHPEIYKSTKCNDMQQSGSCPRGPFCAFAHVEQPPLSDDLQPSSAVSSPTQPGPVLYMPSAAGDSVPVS
# Notes: RNA with constant flanks, vertebrate orthologous sites, ends assumed
Strand,bound/input enrichment [ratio]
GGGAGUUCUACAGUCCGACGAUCUCUAUAUAAUUCUAAUGAUACUUCCUUAUAUGACACUUUGGCUCUUCAUACAUUUAAUCGUAUUUACAAGCUAUUUUUUAUAAAUAGCAGCAUAAAUUCAAAGGAGCUUACUUGGUAUUUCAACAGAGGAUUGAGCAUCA,0.324
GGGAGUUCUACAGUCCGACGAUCGCAAAGAAAAAGCAGCCCUUCUCCCAGCCCCUUUUUCACUAGGAGAUACAAACGUUACCAUAGAAGAGCAAUUAAACUCAAUAAAUUUAUCUUUUCAGGAUGAUCCAGACUCCAGUACCACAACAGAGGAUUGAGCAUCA,1.95
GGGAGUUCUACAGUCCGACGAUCUCCCGCCUGUGGCAGCAUCCUUGGGCCAGGGCCACAGCCGAUAUCUUAUACGACCUGUGUUUAGGACAUUUUUUAAAUCAUUGUGUCUAAGCAUCUCAGAGUCAAGUGUGCUUCUUUGCACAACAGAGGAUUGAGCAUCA,0.31
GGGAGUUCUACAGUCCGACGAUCUUGUUUUGUACGGGGCAUUCUCUGUACUAAUUUGUUGUGGUUAUAAAACAACUAGCAAAACAGCUUACAUUUGUAUUUAUUUUCUAUUCCAUACCUUUCUGCCCCAUGUUUUUCCUCCUCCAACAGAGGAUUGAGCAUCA,0.534
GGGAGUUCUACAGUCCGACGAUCCAACGCCAUGGUGGAUGGCUCGGAGCUGAAGAAGGUGCGCUCCAACUCCCGCGUCUACCACCGCUACUUCCUGCUCGACGCCGACAUGCAGUCGCUGAGGUGGGAGCCCUCGAAGAAGGACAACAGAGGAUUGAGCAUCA,0.275
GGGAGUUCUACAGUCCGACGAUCCUGUUGUUAAGCACUGUGUUCCAGACUGUGUCUGACUUGAGUGUGACCUAGGAGAUUUUAUUGUUUUAUUUUAAUGAAGCCCUGCUUGCCACAGAGCAGCCGGGAGAGCAGCGUCCACCACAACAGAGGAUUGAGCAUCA,0.75
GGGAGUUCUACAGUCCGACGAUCCAGCCGAUUCUCUCAUCGGACGAGCUGCCCACAUUGCUGUUCUAGACUCUGACAUAUUCUUAGAAAAAUUCUUUCUGGUUGCCGGCCUCAAAUAUUUCCAGUAGGAAUAAAACCAUUGUACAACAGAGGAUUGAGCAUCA,1.06
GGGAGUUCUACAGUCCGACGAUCCAGUCAUGGAGAAAAAGAUAUUAAAAUAAUUUCAUGGCACUGAUGUUAAUUCUAGUCUAUUAGUUUUAUAAAAGUUAGGGUUCUUAUUUAGGAACAACAGGAAGUGACUGUUAAGGAGAACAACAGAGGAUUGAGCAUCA,1.66

# Sample 3 — target: CCND3, cyclin fold, Cln2 fusion (human); method: yeast growth competition, sequencing; matrix: yeast; notes: weak parent motif; relative to: not given; direction: higher = stronger binding
# Parent: PKN2 docking peptide (human); VSAVRKLDFSDTM; partner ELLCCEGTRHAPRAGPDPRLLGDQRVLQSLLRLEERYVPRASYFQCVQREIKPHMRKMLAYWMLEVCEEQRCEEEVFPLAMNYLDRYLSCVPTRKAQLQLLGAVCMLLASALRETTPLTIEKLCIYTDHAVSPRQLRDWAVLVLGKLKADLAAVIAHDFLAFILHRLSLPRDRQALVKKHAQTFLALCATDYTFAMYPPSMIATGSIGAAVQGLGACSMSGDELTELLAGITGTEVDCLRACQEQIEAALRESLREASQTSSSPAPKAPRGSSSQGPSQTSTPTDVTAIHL
Substitution,normalised enrichment score
VSAVRKLDFSPTM [D11P],0.807
VSAARKLDFSDTM [V4A],1.63
VSATRKLDFSDTM [V4T],0.123
VSAVYKLDFSDTM [R5Y],0.133
VSAVRKLFFSDTM [D8F],0.244
VSAVRKLNFSDTM [D8N],0.765
VSAPRKLDFSDTM [V4P],0.341
VCAVRKLDFSDTM [S2C],0.733
VSAVRKVDFSDTM [L7V],0.0533
VSAVRKLDQSDTM [F9Q],-0.161
VSAVRKLDFSDHM [T12H],0.94
VSAVRCLDFSDTM [K6C],0.594
VSAVRKLDHSDTM [F9H],0.111
VSAVRKLDKSDTM [F9K],0.324
VSAKRKLDFSDTM [V4K],0.975
VSAVRKLDFWDTM [S10W],0.454
VSAVRKLDFSDFM [T12F],0.971
VSAVRKLLFSDTM [D8L],-0.152
VSAVRKLDFCDTM [S10C],0.948
VSAVRRLDFSDTM [K6R],1.4
VSAVRKLYFSDTM [D8Y],0.495
VSFVRKLDFSDTM [A3F],-0.219
VAAVRKLDFSDTM [S2A],0.4
VIAVRKLDFSDTM [S2I],0.506
VSAVRKLDESDTM [F9E],0.174

# Sample 4 — method: DHFR PCA, deep sequencing; matrix: yeast; with: (+)-ABA 4.8 µM; relative to: wild-type fitted maximum; direction: higher = stronger binding
# Target: ABI1, truncated, D143A, DHFR fusion (Arabidopsis thaliana)
# Notes: methotrexate growth selection, single substitutions
# Parent: PYL1, truncated, DHFR fusion (Arabidopsis thaliana); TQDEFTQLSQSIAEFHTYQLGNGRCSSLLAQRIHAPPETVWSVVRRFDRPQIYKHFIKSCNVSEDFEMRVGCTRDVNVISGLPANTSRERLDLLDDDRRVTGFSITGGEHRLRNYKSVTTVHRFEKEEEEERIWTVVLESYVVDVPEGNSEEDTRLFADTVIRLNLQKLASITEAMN; partner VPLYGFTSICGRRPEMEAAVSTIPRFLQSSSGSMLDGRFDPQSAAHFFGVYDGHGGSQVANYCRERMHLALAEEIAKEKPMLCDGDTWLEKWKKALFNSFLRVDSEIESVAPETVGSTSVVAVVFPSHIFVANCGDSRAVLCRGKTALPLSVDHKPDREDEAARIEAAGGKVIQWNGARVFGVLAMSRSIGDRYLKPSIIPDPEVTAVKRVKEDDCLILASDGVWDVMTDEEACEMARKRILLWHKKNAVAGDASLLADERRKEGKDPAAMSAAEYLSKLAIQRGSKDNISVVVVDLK
Substitution,relative binding score
T73M,80.6%
I172R,2.62%
A84W,79.2%
N77H,85.9%
T86M,57.2%
P37D,-4.72%
T119D,4.08%
F15W,74.8%
E67H,62.2%
